Measurements pooled from the literature.
Protocols differ between the studies behind these lines. ± gives the spread as reported.

Compound	tested on	test	system	conditions	scale	quantity	result
CCc1nnc(NS(=O)(=O)c2ccc(NC(=S)NC(=O)/C=C/c3ccc(F)cc3)cc2)s1			female C57BL/6 mouse, plasma			half-life	2.7 h
COc1ccc(C[C@@H]2NC(=O)[C@H]([C@@H](C)O)NC(=O)[C@@H]3[C@@H]4CCN3C(=O)[C@@H]3Cc5cn(c6ccc(F)cc56)CCCCCCN(Cc5ccc(cc5)CCNC(=O)[C@]5(C)CCCN5C2=O)C(=O)CCC(=O)N[C@@H](C)C(=O)N[C@H](CNC(=O)CCCCC[N+](C)(C)C)C(=O)N[C@@H](Cc2cccc(c2)CNC(=O)CO4)C(=O)N3)cc1			healthy fasted humans, plasma	oral, 100 mg single dose, geometric mean, with: Labrasol 1800 mg		half-life	81.5 h
CC(C)C[C@H](NC(=O)[C@H](Cc1cccc2ccccc12)NC(=O)[C@H](CNC(=O)c1ccc(F)nc1)NC(=O)[C@H](CO)NC(=O)C1CCNCC1)C(=O)N[C@H](C(=O)N1CCC[C@H]1C(=O)N[C@H](C(N)=O)[C@@H](C)O)[C@@H](C)O		chemical stability	male human, serum	1 mM, pH 7.4		half-life	> 24 h
C=C1C[C@@H]2[C@H](CC[C@]3(C)C(=O)CC[C@@H]23)[C@@]2(C)C=CC(=O)C=C12		LC-MS/MS	postmenopausal breast cancer women, plasma	oral, 25 mg/day, 2 h, no prior chemotherapy		median plasma concentration	8.7 ng/mL
COc1ccsc1CNCC[C@@]1(c2ccccn2)CCOC2(CCCC2)C1			healthy human, normal hepatic function, plasma	intravenous, 1 mg single dose, geometric mean		clearance	705 mL/min
CNC(C)Cc1ccc2c(c1)OCO2 (racemic)		Drug Effects Questionnaire, item: Want More	human	oral, 0.75 mg/kg, mean over session, unit not given	reference: pre-dose baseline	subjective drug effect rating	22.5
CCCC[C@H](NC(=O)[C@H](Cc1cccc2ccccc12)NC(=O)[C@H](CNC(=O)c1ccc(F)nc1)NC(=O)[C@H](CO)NC(=O)C1CCNCC1)C(=O)N[C@@H](CO)C(=O)N1CCC[C@H]1C(=O)N[C@H](C(N)=O)[C@@H](C)O		chemical stability	male human, serum	1 mM, pH 7.4		half-life	1.7 h
Oc1ccc2ccc3c4ccccc4cc4ccc1c2c43		UPLC-AMS	human, plasma	oral, 25 ng of [14C]-BaP		half-life	14 ± 20.5 h
CC(C)C[C@H](NC(=O)[C@H](Cc1cccc2ccccc12)NC(=O)[C@H](CNC(=O)c1ccc(F)nc1)NC(=O)[C@H](CO)NC(=O)C1CCNCC1)C(=O)N[C@@H](CCC(N)=O)C(=O)N1CCC[C@H]1C(=O)N[C@H](C(N)=O)[C@@H](C)O		chemical stability	male human, serum	1 mM, pH 7.4		half-life	> 24 h
CCCCCOc1ccc(-c2cc(-c3ccc(C(=O)N[C@H]4C[C@@H](O)[C@@H](O)NC(=O)[C@@H]5[C@@H](O)[C@@H](C)CN5C(=O)[C@H]([C@H](O)CC(N)=O)NC(=O)[C@H]([C@H](O)[C@@H](O)c5ccc(O)c(OS(=O)(=O)O)c5)NC(=O)[C@@H]5C[C@@H](O)CN5C(=O)[C@H]([C@@H](C)O)NC4=O)cc3)no2)cc1			young infants under 1000 g, plasma	intravenous infusion, 10 mg/kg/day, day 4, median, 1 h infusion, repeat dosing		half-life	10.4 h
CN[C@@](C)(C[18F])C(=O)O	SK-OV-3 tumour model		host not given, tumour	15 min, tumour-bearing		tracer uptake	6.4 %ID/g
O=C([O-])[C@H](Cc1ccccc1)N1C(=O)/C(=C\c2ccc(-c3ccc(Cl)c(Cl)c3)o2)NC1=S.[Na+]			CD-1 mouse, female, plasma	intraperitoneal		half-life	2 to 3 h
N=C(N)NCCC[C@@H]1NC(=O)[C@H](CCCCNC(=O)[C@H](CC(=O)O)NC(=O)[C@H](CC(=O)O)NC(=O)[C@H](CC(=O)O)NC(=O)CC[C@H](NC(=O)CCOCCOCCOCCOCCNC(=O)c2ccc(NN)nc2)C(=O)N[C@@H](CC(=O)O)C(=O)N[C@@H](CC(=O)O)C(=O)N[C@@H](CC(=O)O)C(=O)NCCCC[C@@H]2NC(=O)[C@@H](Cc3ccccc3)NC(=O)[C@H](CC(=O)O)NC(=O)CNC(=O)[C@H](CCCNC(=N)N)NC2=O)NC(=O)[C@@H](Cc2ccccc2)NC(=O)[C@H](CC(=O)O)NC(=O)CNC1=O [technetium-99m labelled]		γ-counting	female athymic nude mice, U-87 MG xenograft, kidneys	intravenous, 1 h		tissue uptake	19.9 ± 0.28 %ID/g
C#CCn1c(C)c(C(=O)C(=O)NC(C)(C)C#C)c(C)c1C(=O)Nc1ccc(F)c(F)c1			mouse liver microsomes	1 µM, with: ritonavir 3 µM		half-life	1.8 h
CC[C@H](C)[C@H](NC(=O)[C@H](CCCNC(=N)N)NC(=O)[C@H](CC(C)C)NC(=O)[C@@H](N)Cc1ccccc1)C(=O)N[C@@H](CCCNC(=N)N)C(=O)N1CCC[C@H]1C(=O)N[C@@H](CCCCN)C(=O)O			rat plasma	with: chymostatin 100 µM		half-life	1 h
O=c1[nH]c(Cc2ccccn2)nc2c1cnn2C1CCOCC1			healthy men, extensive metabolizers, plasma	oral, 5 mg single dose, tablet, geometric mean		half-life	1.16 h
CC(C)C[C@H](NC(=O)[C@H](Cc1cccc2ccccc12)NC(=O)[C@H](CNC(=O)c1ccc(F)nc1)NC(=O)[C@H](CO)NC(=O)C1CCNCC1)C(=O)N(C)[C@@H](CO)C(=O)N1CCC[C@H]1C(=O)N[C@H](C(N)=O)[C@@H](C)O		chemical stability	male human, serum	1 mM, pH 7.4		half-life	> 24 h
C[C@H]1CNCCc2ccc(Cl)cc21			Sprague-Dawley rat, male, plasma	subcutaneous, 1 mg/kg, 360 min		plasma concentration	1.98 ± 0.16 ng/mL
Cc1ncc2n1-c1ccc(Cl)cc1C(c1ccccc1F)=NC2			healthy men, plasma	oral, 7.5 mg, without amenamevir		AUC(0-inf) LS mean	113 ng·h/mL
CC(C)C[C@@H](NC(=O)[C@H](Cc1cccc2ccccc12)NC(=O)[C@H](CNC(=O)c1ccc(F)nc1)NC(=O)[C@H](CO)NC(=O)C1CCNCC1)C(=O)N[C@@H](CO)C(=O)N1CCC[C@H]1C(=O)N[C@H](C(N)=O)[C@@H](C)O		chemical stability	male human, serum	1 mM, pH 7.4		half-life	> 24 h
O[C@H]1CCCN[C@@H]1CCCn1cnc2c(Cl)c(Cl)ccc21			human, plasma	oral, 100 mg single dose, solution, geometric mean		half-life	3.84 h
CCCCCCCCCCCCCCCC(=O)NCCCC[C@H](NC(=O)[C@H](CCC(=O)O)NC(=O)[C@H](CCC(=O)O)NC(=O)[C@H](Cc1ccc(O)cc1)NC(=O)[C@H](CCC(=O)O)NC(=O)CCCCCNC(=S)Nc1ccc2c(c1)C(=O)OC21c2ccc(O)cc2Oc2cc(O)ccc21)C(=O)N[C@@H](Cc1ccc(O)cc1)C(=O)N[C@@H](CCC(=O)O)C(=O)NCC(=O)NCC(=O)NCC(=O)NCC(=O)N[C@@H](CO)C(=O)NCC(=O)NCC(=O)NCC(=O)NCC(=O)N[C@@H](CO)C(=O)N[C@@H](Cc1ccccc1)C(=O)N[C@@H](CC(N)=O)C(=O)N1CCC[C@H]1C(=O)N[C@@H](CCCNC(=N)N)C(=O)N[C@@H](Cc1c[nH]cn1)C(=O)NC(C)(C)C(=O)N[C@@H](CCC(=O)O)C(=O)NCC(=O)N[C@H](C(=O)N[C@@H](Cc1ccccc1)C(=O)N[C@H](C(=O)N[C@@H](CO)C(=O)N[C@@H](CC(=O)O)C(=O)N[C@H](C(=O)N[C@@H](CO)C(=O)N[C@@H](CO)C(=O)N[C@@H](Cc1ccc(O)cc1)C(=O)N[C@@H](CC(C)C)C(=O)N[C@@H](CCC(=O)O)C(=O)NCC(=O)N[C@@H](CCC(N)=O)C(=O)N[C@@H](C)C(=O)N[C@@H](C)C(=O)N[C@@H](CCCCN)C(=O)N[C@@H](CCC(=O)O)C(=O)N[C@@H](Cc1ccccc1)C(=O)N[C@H](C(=O)N[C@@H](C)C(=O)N[C@@H](Cc1c[nH]c2ccccc12)C(=O)N[C@@H](CC(C)C)C(=O)N[C@H](C(=O)N[C@@H](CCCCN)C(=O)NCC(=O)N[C@@H](CCCNC(=N)N)C(=O)NCC(=O)O)C(C)C)[C@@H](C)CC)C(C)C)[C@@H](C)O)[C@@H](C)O		item: released GLP-1 analogue	rhesus monkey, plasma	subcutaneous, 10 nmol/kg		half-life	74 h

Repeated from above:
Compound	tested on	test	system	conditions	scale	quantity	result
C=C1C[C@@H]2[C@H](CC[C@]3(C)C(=O)CC[C@@H]23)[C@@]2(C)C=CC(=O)C=C12		LC-MS/MS	postmenopausal breast cancer women, plasma	oral, 25 mg/day, 2 h, no prior chemotherapy		median plasma concentration	8.7 ng/mL
